Measured values collected from several papers.
Each numbered part is a random draw from the data of one study; scales do not carry over between parts. Changes are numbered by the printed parent chain.

Series 1
Target: Histone acetyltransferase KAT6A, both winged helices, GST fusion (KAT6A, Homo sapiens, UniProt Q92794, residues 1-181)
Method: protein binding microarray
Molecule type: double-stranded DNA, one strand shown
Matrix: in vitro
Tested at: not given
Setting: 8-mer, flanks averaged, mean of 2 arrays, mostly near background
Relative to: not given
Direction: higher = stronger binding
Target sequence (chain): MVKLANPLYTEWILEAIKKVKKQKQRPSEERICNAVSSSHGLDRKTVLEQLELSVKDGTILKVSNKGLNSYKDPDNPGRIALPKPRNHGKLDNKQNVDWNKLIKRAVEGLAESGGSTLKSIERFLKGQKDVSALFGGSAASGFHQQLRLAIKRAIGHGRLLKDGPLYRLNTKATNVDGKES
Oligonucleotide	E-score
ACGTTACC	0.056
CCCGGTGC	0.168
CCCCAGAC	-0.225
CAGCATAG	-0.0784
AGACCGAG	-0.0758
ATCGACTA	-0.197
GCCTTTAC	0.121
ACTCTGGA	-0.066
CGCGGACG	0.319
AGTATCGC	0.0249
AATTAATA	-0.0544
GTACGCAA	0.0763
ACGTGGCT	-0.0715
AAGTGGGG	-0.227
ACCGCTCC	0.221
AAAATCGT	-0.051
AGGAGAGC	-0.103
CCCACCCC	0.0568
CGGTCGCA	0.21
CAAATTAC	-0.108
ATCCTGTC	-0.069
AACTACGT	-0.0411
AAAGTACC	-0.0837
CCGCTGCG	0.275

Series 2
Target: CCND3, cyclin fold, Cln2 fusion (human)
Method: yeast growth competition, sequencing
Matrix: yeast
Setting: weak parent motif
Relative to: not given
Direction: higher = stronger binding
Parent: ORC1 docking peptide (human); PRARKRLELGNLG
Variant	normalised enrichment score
PRARKRLEEGNLG [L9E]	0.0941
PRARKRLELGNHG [L12H]	0.199
PRARKRLELGTLG [N11T]	0.175
PRARKRLELGNFG [L12F]	0.0764
PRARKRLWLGNLG [E8W]	0.118
PRARKRLELGNLL [G13L]	0.0282
PRARKCLELGNLG [R6C]	0.0995
PRARKMLELGNLG [R6M]	0.119
PRKRKRLELGNLG [A3K]	0.159
ERARKRLELGNLG [P1E]	0.154
GRARKRLELGNLG [P1G]	-0.0473
PRARKRLENGNLG [L9N]	0.0949
PRARKRQELGNLG [L7Q]	0.16
PRARHRLELGNLG [K5H]	0.137
PRARYRLELGNLG [K5Y]	0.0779
PRARDRLELGNLG [K5D]	0.0925

Series 3
Target: BATF, bZIP domain (human)
Method: DHFR protein complementation
Matrix: yeast
Setting: single substitutions, most at no-binding floor
Relative to: wild-type JUN-FOS pair
Direction: higher = stronger binding
Parent: JUN, bZIP domain (human); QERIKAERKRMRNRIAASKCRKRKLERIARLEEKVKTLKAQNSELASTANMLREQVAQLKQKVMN; partner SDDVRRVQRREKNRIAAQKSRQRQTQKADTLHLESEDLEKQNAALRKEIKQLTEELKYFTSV
Variant	binding fitness [natural log]
L45S	-1.04
T48L	-0.0639
S43D	-0.0203
T37Y	-0.0329
L31Y	-0.0981
R53C	-0.581
E54L	-0.163
L31T	-0.198
A29E	-0.104
E33V	-0.192
L45T	-1.22
A40K	0.0392

Series 4
Target: Ras GTPase-activating protein-binding protein 1, full length (G3BP1, Homo sapiens, UniProt Q13283)
Sequence of UniProt Q13283 (whole entry, looked up): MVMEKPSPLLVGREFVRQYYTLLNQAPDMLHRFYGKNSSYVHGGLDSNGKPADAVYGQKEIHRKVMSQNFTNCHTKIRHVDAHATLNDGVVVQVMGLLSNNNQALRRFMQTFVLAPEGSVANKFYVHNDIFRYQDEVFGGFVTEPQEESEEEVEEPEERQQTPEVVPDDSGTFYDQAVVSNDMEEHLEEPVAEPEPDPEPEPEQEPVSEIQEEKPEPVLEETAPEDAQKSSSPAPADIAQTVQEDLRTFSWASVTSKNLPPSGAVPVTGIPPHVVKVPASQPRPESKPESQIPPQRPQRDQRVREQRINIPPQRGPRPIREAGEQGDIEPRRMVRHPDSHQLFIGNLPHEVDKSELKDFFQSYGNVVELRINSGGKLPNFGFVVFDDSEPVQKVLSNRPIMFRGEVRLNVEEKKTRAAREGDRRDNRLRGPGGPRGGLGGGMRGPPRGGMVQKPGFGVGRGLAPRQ
Method: RNA Bind-n-Seq
Molecule type: RNA
Matrix: in vitro
Tested at: 200 nM
Setting: whole 134-nt RNA, ends assumed
Together with: 150 mM KCl
Relative to: input library
Direction: higher = stronger binding
Shared flanks, not repeated: GGGAGUUCUACAGUCCGACGAUC … UGGAAUUCUCGGGUGUCAAGG
Oligonucleotide	log2 enrichment
UAACUUUAGAGGGGGAUCUGAUGGAUAUGGCAGUGGACGUGGAUUUGGGGAUGGCUAUAAUGGGUAUGGAGGAGGACCUGGAGGUGGCAA	0.631
ACCAUGCAGGUGGGCAUCUUUGGGAAGUGGGGCAAGGGGGGGAUAGGGAGGGGGGUAACACUUUGGGAACAGGUGGUCCCAGGUAAAUUC	1.11
GUCCUGUGCUACACAUCGUAUGUACCGAAUCGGGAAAAAAAGGGAAAAAAAGGGAGGGAAAGUAUUAUGUUACGCCGUUCGGAUCUGCAC	0.0478
AAGUCCUGUGCUACACAUCGUAUGUACCGAAUCGGAAAAGGGAAAAGGGGAAAAGGAAAGUAUUAUGUUACGCCGUUCGGAUCUGCACUU	-0.735
UGGCCCUGGUGGCCUGCGGGGAGGAAGAGGUGGCCUCAUGGAUCGUGGUGGUCCCGGUGGAAUGUUCAGAGGUGGCCGUGGUGGAGACAG	0.135
UAACUUUAGAGGAGGAUCUGAUGGAUAUGGCAGUGGCCGUGGAUUUGGGGAUGGCUAUAAUGGGUAUGGAGGAGGACCUGGAGGUGGCAA	0.225
UCCUCAAGUCCUGUGCUACACAUCGUAUGUACCGAAUCGGUGGUUUGGUGGAAAGUAUUAUGUUACGCCGUUCGGAUCUGCACUUCCAGC	-0.589
CUGUGCUACACAUCGUAUGUACCGAAUCGGGGCCCCCCCGGGGCCCCCCCGGGCCCCCCCGGAAAGUAUUAUGUUACGCCGUUCGGAUCU	-0.928
AGUCCUGUGCUACACAUCGUAUGUACCGAAUCGGGGUUUUUGGGGUGGGGAAAGGGGAAAGUAUUAUGUUACGCCGUUCGGAUCUGCACU	0.315
UGGCCCUGGUGGCAUGCGGGGAGGAUGAGGUGGCCUCAUGGAUCGUGGUGGUCCCGGUGGAAUGUUCAGAGGUGGCCGUGGUGGAGACAG	0.245
GUCCUGUGCUACACAUCGUAUGUACCGAAUCGGGGUUUGGGGUUUUUUUGGGGUGGGGAAAGUAUUAUGUUACGCCGUUCGGAUCUGCAC	0.553
UCCUGUGCUACACAUCGUAUGUACCGAAUCGGGGUUUUUGGGGUUUUUGGGGUUUGGGGAAAGUAUUAUGUUACGCCGUUCGGAUCUGCA	0.688
CCUGUGCUACACAUCGUAUGUACCGAAUCGGGUUUUUUUGGUUUUUUUGGGGUUUUUUUGGAAAGUAUUAUGUUACGCCGUUCGGAUCUG	-1.04
CUCAAGUCCUGUGCUACACAUCGUAUGUACCGAAUCGGAAAGGAAAGGGAAAGGAAAGUAUUAUGUUACGCCGUUCGGAUCUGCACUUCC	-0.773

Series 5
Target: RNA binding protein fox-1 homolog 2, RRM domain, GST-SBP tag (RBFOX2, Homo sapiens, UniProt O43251-10, residues 100-194)
Method: RNA Bind-n-Seq
Molecule type: RNA
Matrix: in vitro
Tested at: 365 nM
Setting: natural RNA segment, single round, ends assumed
Relative to: no-protein control
Direction: higher = stronger binding
Shared flanks, not repeated: GGGAGUUCUACAGUCCGACGAUC … UGGAAUUCUCGGGUGCCAA
Target sequence (chain): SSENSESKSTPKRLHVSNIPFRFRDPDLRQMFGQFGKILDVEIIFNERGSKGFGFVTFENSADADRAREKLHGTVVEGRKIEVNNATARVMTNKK
Oligonucleotide	RBNS enrichment (R)
AGAAUUUGCAGUUUCUAACAAGGUGAAGAACAGCUAUAGGAUCUAAAGUUCCAUUACAGCUUACUGUGAAAGAAUUGACAAGACUGGCCUCAGACAAGCUAAUCAUGGUG	0.318
ACAGAUUUUGUGUUCUUUGGCCCUUCAAAUACUGGUGUUACAUUGUUGCUGCAGAUAAAUGAUGAUUGUCGUGGGAUAUCUGGAUCACUGAGCUCUGUGCUUUCAUUCCU	0.274
UCCCCUGACCCAGACCUAGAACCUGGAGAAGCCAAUAAAGACCUACAGGAUGCAACUAUUCCCAAUCCUUUCCAGAAUGUCACUCACUCCCUUGGGCUGUUGUGGGAAAA	0.898
UUAAAUUUUUGUAAAUAUUUUGAUUUAAUGUGUCUUAGAUCCUCAUUAUUUUAAUACAGGAAAAGAAAAGAUUUAGUAAUUUCUUACCAUGCUAAUAUGUAAAGUUCAUG	0.73
UAGAGAGUAGGUACCCAGGAGUGGAGAUGGAAGGAGUCUGAACUUUCCUGUGGCCAUGCUGACUUACACUAAGAUUCUACCCCAGAAAACAAUUCUUUAGCAGUGGACAG	0.455
GGACGUGGAGGUAGGUGGAUCACUGCAAGUUUGAGGCUAGCAUGGUCAAUAAAGAUAGUUCAAGGCCAGCUUGGACUAUAUGAUAUGACUGCCCAAUUUUAAAGUUAUUC	1.87
CUACCCAGCACAGCAAAUGGUUGUAGUAAUUGCCAAAGCCCUCAUAAACCCCUCCGGCUUGAGGAGAGUGCAAUCAUGGCUCUGCUGCCUGCACUUGCUGGGUUCCUCCC	0.319
GAGUGAGUGUUCACUCUUUUGUCUGUGGAGUCUGCUGUGUGGCAGGAUCCCAGCCCUAGAGCUGCAGGGCUGCCCUGUGGGACAGCGCAGCCUAAGCUGAUUUGGAUCUG	0.391
CCCCAUCCCUGGGGCAACAUUCCCUGGAGCUGUGCCAACAGGAGGACUGAAGCAGCCUGGUUUUAGAGUGUAGCUGUAAGGGCAGUGCCCGUGUGUACAGUCUGUGGAGU	0.564
UCCUUUUCCACCCCACACCCUGAAGCCAUUGGAAAACUGGCUUCCUGUGCACUUCUAGAAUCCCAGCAGCCAAGAGCCGUUGGGGCAGGAGGGCCUGUGGUGACCUACUG	0.638
GACUGAAAUAUCUUGACAGUUGAGAUGUGGUCAGGUGAAAAGCUACAUCUCCAUUACAAGUUGGAACUCAGUAGAAUCAAACCUUGUUACUUUAAGAUCUGUAGAAAUAA	0.654
CCAGUGUUUACAGCCUUGCUUUCCUCCCACCGACCCUGGCCCCAGGCUGCCCCGGGCCUGGCGGGCCACCCCUCUCUAUGCAAACACGUAAAAGCCAUGAAUGCUGGAAU	0.866

Single results of other studies
Molecule	target	assay	system	conditions	how to read	measurement	value
PhoQ, residues 284 288 289 292 302 303 WVSSAF	PhoP, residues 12 14 15 18 19 AQCLL (Escherichia coli, UniProt P23836)	Sort-seq, refers to: YFP reporter	E. coli	PhoQ-PhoP variant library, together with: 10 µM Mg2+	relative to: high Mg2+ state, higher = stronger signaling	fold induction	9.11

Repeated from above (series 2):
Variant	normalised enrichment score
PRARKMLELGNLG [R6M]	0.119
PRARKRLELGTLG [N11T]	0.175
PRARKRLENGNLG [L9N]	0.0949
PRARYRLELGNLG [K5Y]	0.0779
PRARDRLELGNLG [K5D]	0.0925
